Published values pooled from the literature.
Each numbered part is a random draw from the data of one study; scales do not carry over between parts. Substitutions count along the parent as printed.
Sequence of UniProt Q9BWU1 (whole entry, looked up): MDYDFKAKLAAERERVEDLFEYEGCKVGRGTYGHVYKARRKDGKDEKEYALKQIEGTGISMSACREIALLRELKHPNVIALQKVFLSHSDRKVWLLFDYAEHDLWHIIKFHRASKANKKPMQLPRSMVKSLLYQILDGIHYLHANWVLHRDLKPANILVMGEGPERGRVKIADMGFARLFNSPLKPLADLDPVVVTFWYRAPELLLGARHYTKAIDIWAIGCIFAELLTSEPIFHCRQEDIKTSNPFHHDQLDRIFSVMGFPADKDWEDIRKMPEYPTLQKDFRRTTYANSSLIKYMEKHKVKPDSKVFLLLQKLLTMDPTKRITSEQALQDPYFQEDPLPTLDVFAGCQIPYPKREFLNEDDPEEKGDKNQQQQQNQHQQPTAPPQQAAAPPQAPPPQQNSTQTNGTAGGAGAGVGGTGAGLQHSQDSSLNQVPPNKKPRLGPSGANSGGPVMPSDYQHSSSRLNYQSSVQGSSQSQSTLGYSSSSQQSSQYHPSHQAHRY
Sequence of UniProt P37173 (whole entry, looked up): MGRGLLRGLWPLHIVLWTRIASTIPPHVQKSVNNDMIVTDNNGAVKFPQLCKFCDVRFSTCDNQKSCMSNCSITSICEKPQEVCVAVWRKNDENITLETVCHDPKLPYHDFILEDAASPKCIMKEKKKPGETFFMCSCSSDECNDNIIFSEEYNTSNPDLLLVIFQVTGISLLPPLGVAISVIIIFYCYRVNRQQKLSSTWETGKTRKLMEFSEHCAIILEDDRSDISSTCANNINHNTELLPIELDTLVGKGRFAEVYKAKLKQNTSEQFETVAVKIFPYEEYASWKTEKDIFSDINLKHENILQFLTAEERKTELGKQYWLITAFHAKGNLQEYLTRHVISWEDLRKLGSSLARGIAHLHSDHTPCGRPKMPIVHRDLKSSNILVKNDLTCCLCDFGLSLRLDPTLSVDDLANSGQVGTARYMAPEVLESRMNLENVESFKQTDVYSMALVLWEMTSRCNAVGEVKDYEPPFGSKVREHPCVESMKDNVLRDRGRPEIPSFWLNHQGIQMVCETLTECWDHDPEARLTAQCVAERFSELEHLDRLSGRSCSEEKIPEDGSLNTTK
Sequence of UniProt P53671 (whole entry, looked up): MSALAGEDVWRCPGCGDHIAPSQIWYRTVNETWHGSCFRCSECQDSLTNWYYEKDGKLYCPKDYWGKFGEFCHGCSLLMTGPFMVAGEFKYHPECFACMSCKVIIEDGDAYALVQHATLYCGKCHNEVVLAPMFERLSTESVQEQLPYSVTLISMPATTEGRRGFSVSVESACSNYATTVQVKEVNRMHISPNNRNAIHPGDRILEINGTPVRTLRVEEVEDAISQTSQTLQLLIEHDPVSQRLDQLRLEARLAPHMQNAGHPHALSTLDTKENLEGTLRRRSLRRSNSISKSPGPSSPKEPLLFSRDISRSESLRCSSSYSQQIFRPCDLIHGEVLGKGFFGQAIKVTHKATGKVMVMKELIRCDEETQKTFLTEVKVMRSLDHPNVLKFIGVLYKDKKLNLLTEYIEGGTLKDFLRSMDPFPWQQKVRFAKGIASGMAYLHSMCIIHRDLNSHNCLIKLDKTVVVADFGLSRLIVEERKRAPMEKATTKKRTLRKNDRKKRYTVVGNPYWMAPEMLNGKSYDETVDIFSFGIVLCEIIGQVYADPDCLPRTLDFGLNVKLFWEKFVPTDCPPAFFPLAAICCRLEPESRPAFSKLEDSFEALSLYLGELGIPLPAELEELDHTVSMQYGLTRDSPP
Sequence of UniProt Q00537 (whole entry, looked up): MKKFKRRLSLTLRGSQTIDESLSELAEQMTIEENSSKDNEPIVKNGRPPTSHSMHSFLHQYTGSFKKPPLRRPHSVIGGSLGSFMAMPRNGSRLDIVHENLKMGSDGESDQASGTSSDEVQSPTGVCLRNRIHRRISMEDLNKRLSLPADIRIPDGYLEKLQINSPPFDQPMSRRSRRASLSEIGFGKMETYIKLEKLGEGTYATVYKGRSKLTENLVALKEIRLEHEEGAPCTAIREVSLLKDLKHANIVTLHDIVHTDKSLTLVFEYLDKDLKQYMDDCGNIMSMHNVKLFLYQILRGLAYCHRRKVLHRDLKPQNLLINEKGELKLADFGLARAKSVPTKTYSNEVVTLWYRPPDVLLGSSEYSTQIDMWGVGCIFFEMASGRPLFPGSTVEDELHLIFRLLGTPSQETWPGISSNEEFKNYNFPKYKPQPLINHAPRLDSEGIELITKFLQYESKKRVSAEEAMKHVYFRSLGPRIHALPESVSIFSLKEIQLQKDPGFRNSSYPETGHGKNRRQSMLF
Sequence of UniProt Q9H0K1 (whole entry, looked up): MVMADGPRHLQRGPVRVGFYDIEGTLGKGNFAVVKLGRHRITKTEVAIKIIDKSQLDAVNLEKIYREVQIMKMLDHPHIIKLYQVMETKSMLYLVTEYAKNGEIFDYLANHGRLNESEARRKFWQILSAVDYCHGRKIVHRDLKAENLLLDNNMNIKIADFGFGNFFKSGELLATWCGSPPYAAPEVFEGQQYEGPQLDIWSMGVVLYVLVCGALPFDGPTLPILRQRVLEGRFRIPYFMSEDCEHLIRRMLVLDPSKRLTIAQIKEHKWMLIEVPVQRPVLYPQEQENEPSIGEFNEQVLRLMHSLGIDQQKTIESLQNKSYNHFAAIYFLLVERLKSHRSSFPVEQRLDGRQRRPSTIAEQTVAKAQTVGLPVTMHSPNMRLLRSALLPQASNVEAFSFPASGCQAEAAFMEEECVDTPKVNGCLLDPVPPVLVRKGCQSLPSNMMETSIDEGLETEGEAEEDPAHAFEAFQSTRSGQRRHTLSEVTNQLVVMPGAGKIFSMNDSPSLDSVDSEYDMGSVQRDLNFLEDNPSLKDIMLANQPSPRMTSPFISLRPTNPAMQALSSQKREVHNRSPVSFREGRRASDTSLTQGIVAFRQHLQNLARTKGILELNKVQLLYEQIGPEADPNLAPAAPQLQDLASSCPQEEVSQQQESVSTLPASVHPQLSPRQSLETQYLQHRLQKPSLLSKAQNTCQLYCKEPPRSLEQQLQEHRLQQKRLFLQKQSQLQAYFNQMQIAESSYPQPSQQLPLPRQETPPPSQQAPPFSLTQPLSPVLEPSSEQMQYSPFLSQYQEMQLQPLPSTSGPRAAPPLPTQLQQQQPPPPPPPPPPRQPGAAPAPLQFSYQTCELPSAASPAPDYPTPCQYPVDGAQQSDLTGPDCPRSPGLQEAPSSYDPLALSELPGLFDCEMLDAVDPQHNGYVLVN
Sequence of UniProt P29322 (whole entry, looked up): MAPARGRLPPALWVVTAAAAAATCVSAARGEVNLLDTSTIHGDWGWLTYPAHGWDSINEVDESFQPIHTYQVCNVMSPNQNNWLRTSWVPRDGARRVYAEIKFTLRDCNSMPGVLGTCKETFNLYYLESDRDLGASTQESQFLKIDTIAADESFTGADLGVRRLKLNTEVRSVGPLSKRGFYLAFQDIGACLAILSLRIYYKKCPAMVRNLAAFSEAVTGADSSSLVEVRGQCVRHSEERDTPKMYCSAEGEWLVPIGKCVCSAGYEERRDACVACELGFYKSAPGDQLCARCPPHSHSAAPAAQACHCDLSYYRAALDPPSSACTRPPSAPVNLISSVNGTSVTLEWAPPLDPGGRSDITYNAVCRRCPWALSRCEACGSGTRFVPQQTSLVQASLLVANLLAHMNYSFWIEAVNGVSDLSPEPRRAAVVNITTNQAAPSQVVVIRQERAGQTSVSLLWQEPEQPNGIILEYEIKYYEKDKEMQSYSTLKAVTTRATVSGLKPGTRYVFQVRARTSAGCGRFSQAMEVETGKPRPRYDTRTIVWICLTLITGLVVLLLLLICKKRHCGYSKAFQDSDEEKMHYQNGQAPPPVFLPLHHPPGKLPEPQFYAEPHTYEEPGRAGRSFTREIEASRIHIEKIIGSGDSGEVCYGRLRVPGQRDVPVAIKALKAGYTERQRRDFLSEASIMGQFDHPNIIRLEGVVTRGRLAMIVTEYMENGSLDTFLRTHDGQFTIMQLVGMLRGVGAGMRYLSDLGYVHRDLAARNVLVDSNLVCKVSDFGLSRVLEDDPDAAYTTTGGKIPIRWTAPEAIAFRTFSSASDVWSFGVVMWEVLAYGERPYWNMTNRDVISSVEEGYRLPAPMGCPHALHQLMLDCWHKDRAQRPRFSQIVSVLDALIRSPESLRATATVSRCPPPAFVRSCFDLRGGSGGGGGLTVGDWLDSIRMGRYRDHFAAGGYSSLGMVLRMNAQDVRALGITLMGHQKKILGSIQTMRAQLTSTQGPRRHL
Sequence of UniProt O75914 (whole entry, looked up): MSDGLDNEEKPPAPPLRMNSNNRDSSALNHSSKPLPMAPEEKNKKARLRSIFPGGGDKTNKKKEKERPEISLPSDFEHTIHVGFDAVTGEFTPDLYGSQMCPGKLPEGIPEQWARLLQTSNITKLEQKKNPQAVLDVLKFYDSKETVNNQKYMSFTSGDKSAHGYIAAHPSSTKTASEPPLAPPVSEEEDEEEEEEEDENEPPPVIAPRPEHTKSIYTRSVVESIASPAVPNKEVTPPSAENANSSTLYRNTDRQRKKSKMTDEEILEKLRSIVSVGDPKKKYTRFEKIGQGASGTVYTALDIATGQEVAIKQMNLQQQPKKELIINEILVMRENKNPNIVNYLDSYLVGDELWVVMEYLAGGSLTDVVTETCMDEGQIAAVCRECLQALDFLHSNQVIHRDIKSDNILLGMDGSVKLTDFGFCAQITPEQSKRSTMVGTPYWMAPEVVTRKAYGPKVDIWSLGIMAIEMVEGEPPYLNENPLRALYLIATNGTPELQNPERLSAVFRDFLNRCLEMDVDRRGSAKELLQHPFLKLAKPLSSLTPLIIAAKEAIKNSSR

Sample 1
SMILES: Cn1cncc1[C@@](O)(COc1ccc(C#N)cc1-c1ccc(OC(F)(F)F)cc1)c1ccc(C#N)cc1
Concentration: 1 µM
| target | assay | remaining binding [%] |
| --- | --- | --- |
| CDK19 (Homo sapiens, UniProt Q9BWU1) | competition binding | 64 |
| PAK3 (Homo sapiens, UniProt O75914) | cell-free assay, competition with immobilised ligand | 91 |
| SIK2 (Homo sapiens, UniProt Q9H0K1) | cell-free assay, competition with immobilised ligand | 100 |
| PRKD1 (Homo sapiens, UniProt Q15139) | cell-free assay, competition with immobilised ligand | 98 |
| PRKD3 (Homo sapiens, UniProt O94806) | cell-free assay, competition with immobilised ligand | 98 |
| EPHA6 (Homo sapiens, UniProt Q9UF33) | cell-free assay, competition with immobilised ligand | 3 |
| EPHA8 (Homo sapiens, UniProt P29322) | cell-free assay, competition with immobilised ligand | 100 |
| NUAK2 (Homo sapiens, UniProt Q9H093) | cell-free assay, competition with immobilised ligand | 100 |
| MAP2K4 (Homo sapiens, UniProt P45985) | cell-free assay, competition with immobilised ligand | 100 |
| Tyrosine-protein kinase ABL1, phosphorylated (ABL1, Homo sapiens, UniProt P00519) | cell-free assay, competition with immobilised ligand | 96 |
| EPHA3 (Homo sapiens, UniProt P29320) | cell-free assay, competition with immobilised ligand | 100 |
| pknB (Mycobacterium tuberculosis, UniProt P9WI81) | cell-free assay, competition with immobilised ligand | 78 |
| TGFBR2 (Homo sapiens, UniProt P37173) | cell-free assay, competition with immobilised ligand | 96 |
| CDK15 (Homo sapiens, UniProt Q96Q40) | cell-free assay, competition with immobilised ligand | 100 |
| FLT1 (Homo sapiens, UniProt P17948) | cell-free assay, competition with immobilised ligand | 83 |
| LIM domain kinase 2 (LIMK2, Homo sapiens, UniProt P53671) | cell-free assay, competition with immobilised ligand | 82 |
| CDK17 (Homo sapiens, UniProt Q00537) | cell-free assay, competition with immobilised ligand | 95 |

Sample 2
Target: CCNB2, cyclin fold, Cln2 fusion (human)
Technique: yeast growth competition, sequencing
Matrix: yeast
Notes: strong parent motif
Baseline: not given
Direction: higher = stronger binding
Starting sequence: viral docking peptide; TSVRRALFTGGSD
| Change | normalised enrichment score |
| --- | --- |
| G10N | 1.29 |
| S2I | 0.407 |
| R5H | 0.413 |
| R4A | 0.296 |
| G10T | 0.633 |
| R5A | 0.215 |
| A6I | 0.792 |
| S12Y | 0.946 |

Sample 3
Target: HLA class I histocompatibility antigen, A alpha chain, allele A*80:01 (Homo sapiens, UniProt P04439)
Effect on: peptide-MHC binding
Molecule type: peptide
Concentration: concentration not given
| Molecule | binding |
| --- | --- |
| FPASHMATY | inactive |
| EWAENCYNL | inactive |
| MTQNISNDK | inactive |
| VHREWFMDL | inactive |
| ETWVETWAF | inactive |
| HWMDATFNI | inactive |
| FVDVGVSAL | inactive |
| NTDEIPELI | inactive |

Further values, each from its own experiment
| SMILES | target or system | assay | test system | setting | endpoint | result |
| --- | --- | --- | --- | --- | --- | --- |
| CNC(=O)Oc1ccccc1OC(C)C | HaCaT | – | – | 100 µM, 60 h | viability | 150% |
| COc1ccc(-c2c(Nc3ccccn3)[nH]c3c(C4=CCCCC4)c(-c4ccccc4)nn3c2=O)cc1 | – | – | patients with advanced malignancies | oral, dose not given, treatment-emergent adverse events | grade 3 hyperbilirubinaemia incidence | 7.5% |
| CN(C)C(=O)Oc1ccc[n+](C)c1.[Br-] | Sarcocystis neurona | parasite growth | – | 10 µM | inhibition | 2.2% |

For quick reference, copied from above (sample 1):
| target | assay | remaining binding [%] |
| --- | --- | --- |
| PAK3 (Homo sapiens, UniProt O75914) | cell-free assay, competition with immobilised ligand | 91 |
| LIM domain kinase 2 (LIMK2, Homo sapiens, UniProt P53671) | cell-free assay, competition with immobilised ligand | 82 |
| CDK19 (Homo sapiens, UniProt Q9BWU1) | competition binding | 64 |
